Measurements from different studies.
Lines come from different studies, so protocols differ. ± marks the error that the study gave.
Sequence of UniProt P04775 (whole entry, looked up): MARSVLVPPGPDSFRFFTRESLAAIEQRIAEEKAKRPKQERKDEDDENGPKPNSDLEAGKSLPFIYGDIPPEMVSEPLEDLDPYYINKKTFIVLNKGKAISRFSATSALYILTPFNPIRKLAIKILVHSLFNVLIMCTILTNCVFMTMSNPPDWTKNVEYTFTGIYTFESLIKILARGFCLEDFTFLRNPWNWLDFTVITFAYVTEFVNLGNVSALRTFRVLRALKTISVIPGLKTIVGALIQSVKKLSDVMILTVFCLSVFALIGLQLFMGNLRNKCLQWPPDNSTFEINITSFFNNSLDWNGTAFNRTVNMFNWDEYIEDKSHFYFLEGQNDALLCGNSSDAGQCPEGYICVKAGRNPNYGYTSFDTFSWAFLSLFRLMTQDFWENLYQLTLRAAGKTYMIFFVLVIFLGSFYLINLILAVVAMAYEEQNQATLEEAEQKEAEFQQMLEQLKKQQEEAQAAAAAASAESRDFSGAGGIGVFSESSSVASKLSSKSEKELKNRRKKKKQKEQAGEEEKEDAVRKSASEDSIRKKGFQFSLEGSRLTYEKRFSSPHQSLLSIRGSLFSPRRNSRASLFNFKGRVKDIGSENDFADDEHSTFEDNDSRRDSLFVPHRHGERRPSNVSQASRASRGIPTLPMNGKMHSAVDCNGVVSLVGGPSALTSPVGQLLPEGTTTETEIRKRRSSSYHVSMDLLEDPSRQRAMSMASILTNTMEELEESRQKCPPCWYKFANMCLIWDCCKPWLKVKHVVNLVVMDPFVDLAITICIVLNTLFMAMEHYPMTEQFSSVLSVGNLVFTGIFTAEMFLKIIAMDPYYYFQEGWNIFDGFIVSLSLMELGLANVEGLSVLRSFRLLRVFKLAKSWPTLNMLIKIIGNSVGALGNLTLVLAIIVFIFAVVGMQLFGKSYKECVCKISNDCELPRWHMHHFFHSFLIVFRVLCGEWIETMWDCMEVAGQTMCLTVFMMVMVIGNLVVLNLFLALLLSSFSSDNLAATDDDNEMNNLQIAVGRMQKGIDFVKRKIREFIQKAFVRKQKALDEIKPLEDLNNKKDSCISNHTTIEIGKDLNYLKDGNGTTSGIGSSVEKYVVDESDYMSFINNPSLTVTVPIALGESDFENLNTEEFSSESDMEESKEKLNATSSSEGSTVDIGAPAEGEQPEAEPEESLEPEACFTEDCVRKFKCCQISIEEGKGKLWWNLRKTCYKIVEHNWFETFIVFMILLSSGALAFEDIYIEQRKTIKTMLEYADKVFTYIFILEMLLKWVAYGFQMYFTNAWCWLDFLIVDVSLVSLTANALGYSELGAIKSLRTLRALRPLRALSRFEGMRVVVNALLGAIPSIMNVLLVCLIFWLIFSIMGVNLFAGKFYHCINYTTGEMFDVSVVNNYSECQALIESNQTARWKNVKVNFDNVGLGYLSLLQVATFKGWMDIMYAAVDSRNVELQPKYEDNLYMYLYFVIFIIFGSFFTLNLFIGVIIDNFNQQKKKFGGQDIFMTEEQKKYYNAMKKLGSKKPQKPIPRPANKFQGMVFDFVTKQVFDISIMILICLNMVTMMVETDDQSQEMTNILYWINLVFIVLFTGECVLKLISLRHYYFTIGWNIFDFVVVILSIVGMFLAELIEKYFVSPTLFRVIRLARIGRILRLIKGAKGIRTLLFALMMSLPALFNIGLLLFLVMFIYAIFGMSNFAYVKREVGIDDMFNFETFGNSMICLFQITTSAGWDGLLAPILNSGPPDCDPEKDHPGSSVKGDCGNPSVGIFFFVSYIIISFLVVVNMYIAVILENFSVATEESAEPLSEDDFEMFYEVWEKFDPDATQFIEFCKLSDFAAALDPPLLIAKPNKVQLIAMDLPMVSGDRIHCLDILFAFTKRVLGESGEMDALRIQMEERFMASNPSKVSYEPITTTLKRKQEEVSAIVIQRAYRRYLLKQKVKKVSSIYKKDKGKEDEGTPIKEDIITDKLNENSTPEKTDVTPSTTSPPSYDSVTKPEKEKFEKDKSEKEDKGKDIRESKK
Sequence of UniProt P48736 (whole entry, looked up): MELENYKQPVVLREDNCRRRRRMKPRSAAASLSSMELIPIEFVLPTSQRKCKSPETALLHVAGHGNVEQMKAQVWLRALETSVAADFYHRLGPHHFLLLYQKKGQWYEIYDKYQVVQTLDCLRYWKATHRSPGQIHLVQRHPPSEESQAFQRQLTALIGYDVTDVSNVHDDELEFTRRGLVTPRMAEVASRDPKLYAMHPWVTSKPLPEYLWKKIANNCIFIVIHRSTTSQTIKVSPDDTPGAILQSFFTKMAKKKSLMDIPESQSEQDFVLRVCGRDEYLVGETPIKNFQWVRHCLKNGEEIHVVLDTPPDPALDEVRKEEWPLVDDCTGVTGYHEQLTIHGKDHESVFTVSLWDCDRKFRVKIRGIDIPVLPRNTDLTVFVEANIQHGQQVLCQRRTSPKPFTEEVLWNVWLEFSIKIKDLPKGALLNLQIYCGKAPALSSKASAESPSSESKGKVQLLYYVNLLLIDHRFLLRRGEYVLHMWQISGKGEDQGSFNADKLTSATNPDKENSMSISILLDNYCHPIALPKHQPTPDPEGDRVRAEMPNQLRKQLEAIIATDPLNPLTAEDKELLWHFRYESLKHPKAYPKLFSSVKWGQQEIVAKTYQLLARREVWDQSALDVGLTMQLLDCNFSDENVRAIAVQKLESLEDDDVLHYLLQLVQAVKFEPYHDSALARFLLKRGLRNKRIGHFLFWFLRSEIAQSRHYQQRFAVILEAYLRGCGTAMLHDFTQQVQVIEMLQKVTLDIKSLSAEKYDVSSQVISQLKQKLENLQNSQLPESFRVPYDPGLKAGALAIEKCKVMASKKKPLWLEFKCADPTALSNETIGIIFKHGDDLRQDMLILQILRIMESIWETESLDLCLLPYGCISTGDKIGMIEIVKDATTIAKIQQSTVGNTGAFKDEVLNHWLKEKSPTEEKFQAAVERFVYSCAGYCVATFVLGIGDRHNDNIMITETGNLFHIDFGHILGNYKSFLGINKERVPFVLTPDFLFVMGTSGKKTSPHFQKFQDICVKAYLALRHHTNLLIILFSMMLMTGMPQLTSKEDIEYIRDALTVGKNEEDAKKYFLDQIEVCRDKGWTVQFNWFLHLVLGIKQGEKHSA
Sequence of UniProt P33535 (whole entry, looked up): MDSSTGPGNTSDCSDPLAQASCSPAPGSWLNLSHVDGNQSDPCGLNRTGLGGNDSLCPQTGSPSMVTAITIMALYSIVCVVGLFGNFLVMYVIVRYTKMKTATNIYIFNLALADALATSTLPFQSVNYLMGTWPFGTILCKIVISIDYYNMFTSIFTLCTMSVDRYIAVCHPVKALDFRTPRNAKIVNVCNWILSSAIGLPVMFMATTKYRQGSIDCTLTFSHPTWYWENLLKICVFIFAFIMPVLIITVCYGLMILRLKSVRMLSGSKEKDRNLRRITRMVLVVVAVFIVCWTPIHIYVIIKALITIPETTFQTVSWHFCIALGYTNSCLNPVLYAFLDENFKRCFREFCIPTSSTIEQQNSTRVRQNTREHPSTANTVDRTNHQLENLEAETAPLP
Sequence of UniProt Q0P543 (whole entry, looked up): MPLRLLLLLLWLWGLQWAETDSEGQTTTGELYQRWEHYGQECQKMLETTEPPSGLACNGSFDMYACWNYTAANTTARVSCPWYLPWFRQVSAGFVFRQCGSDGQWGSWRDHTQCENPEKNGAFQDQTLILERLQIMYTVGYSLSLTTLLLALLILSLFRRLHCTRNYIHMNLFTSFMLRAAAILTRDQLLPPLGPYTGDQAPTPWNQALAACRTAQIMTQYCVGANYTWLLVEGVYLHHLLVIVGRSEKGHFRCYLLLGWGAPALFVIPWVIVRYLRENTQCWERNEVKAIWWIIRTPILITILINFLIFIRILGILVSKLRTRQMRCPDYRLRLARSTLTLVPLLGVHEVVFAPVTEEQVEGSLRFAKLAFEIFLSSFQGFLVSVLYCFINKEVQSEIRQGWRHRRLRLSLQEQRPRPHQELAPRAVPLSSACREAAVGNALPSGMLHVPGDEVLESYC
Sequence of UniProt P34972 (whole entry, looked up): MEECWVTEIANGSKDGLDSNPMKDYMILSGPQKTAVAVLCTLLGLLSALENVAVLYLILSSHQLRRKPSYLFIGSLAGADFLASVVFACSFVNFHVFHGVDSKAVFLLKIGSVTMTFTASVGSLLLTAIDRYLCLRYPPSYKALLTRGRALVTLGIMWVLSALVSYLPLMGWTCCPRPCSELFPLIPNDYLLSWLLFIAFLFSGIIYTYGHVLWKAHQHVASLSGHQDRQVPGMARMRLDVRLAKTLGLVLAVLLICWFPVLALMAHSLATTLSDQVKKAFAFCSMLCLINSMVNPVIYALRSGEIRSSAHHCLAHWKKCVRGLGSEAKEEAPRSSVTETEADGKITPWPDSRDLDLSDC
Sequence of UniProt P43220 (whole entry, looked up): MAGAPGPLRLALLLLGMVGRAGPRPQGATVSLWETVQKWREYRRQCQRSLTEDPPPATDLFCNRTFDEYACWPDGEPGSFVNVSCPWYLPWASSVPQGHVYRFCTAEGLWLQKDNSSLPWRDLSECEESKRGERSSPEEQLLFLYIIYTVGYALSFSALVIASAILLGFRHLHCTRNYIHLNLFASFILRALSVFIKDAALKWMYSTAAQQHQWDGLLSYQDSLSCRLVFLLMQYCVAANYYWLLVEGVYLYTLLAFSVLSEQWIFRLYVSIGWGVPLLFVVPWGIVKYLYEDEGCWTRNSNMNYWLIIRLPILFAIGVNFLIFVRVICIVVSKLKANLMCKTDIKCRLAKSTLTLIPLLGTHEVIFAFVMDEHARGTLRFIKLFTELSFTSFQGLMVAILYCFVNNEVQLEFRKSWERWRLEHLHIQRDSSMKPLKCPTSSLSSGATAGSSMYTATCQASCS

SMILES | target | assay | test system | conditions | how to read | endpoint | result
CC[C@H](C)[C@H](NC(=O)[C@H](CCCN)NC(=O)[C@H](CC(=O)O)NC(=O)[C@H](CC(C)C)NC(=O)C(C)(CC(C)C)NC(=O)[C@@H](NC(=O)[C@H](CO)NC(=O)[C@H](Cc1ccc(O)cc1)NC(=O)[C@H](CC(=O)O)NC(=O)[C@H](CO)NC(=O)[C@@H](NC(=O)[C@H](Cc1ccccc1)NC(=O)[C@@H](NC(=O)CNC(=O)[C@H](CCC(=O)O)NC(=O)C(C)(C)NC(=O)[C@@H](N)Cc1ccc(O)cc1)[C@@H](C)O)[C@@H](C)CC)[C@@H](C)CC)C(=O)N[C@@H](Cc1c[nH]cn1)C(=O)N[C@@H](CCC(N)=O)C(=O)NC(C)(C)C(=O)N[C@@H](CC(=O)O)C(=O)N[C@@H](Cc1ccccc1)C(=O)N[C@H](C(=O)N[C@@H](CCC(=O)O)C(=O)N[C@@H](Cc1ccc(O)cc1)C(=O)N[C@@H](CCCCNC(=O)COCCOCCNC(=O)COCCOCCNC(=O)CC[C@H](NC(=O)CCCCCCCCCCCCCCCCCCC(=O)O)C(=O)O)C(=O)N[C@@H](CC(C)C)C(=O)N[C@@H](CCC(=O)O)C(=O)NCC(=O)NCC(=O)N1CCC[C@H]1C(=O)N[C@@H](CO)C(=O)N[C@@H](CO)C(=O)NCC(=O)N[C@@H](C)C(=O)N1CCC[C@H]1C(=O)N1CCC[C@H]1C(=O)N1CCC[C@H]1C(=O)N[C@@H](CO)C(N)=O)C(C)C (some centres unmarked) | Gastric inhibitory polypeptide receptor (Mus musculus, UniProt Q0P543) | cAMP, agonist | HEK293 |  |  | Emax | 101%
C[C@H](Nc1ncnc(N)c1C#N)c1c(-c2ccccc2)[nH]c2c(Cl)cccc2c1=O | Phosphatidylinositol 4,5-bisphosphate 3-kinase catalytic subunit gamma isoform (PIK3CG, Homo sapiens, UniProt P48736) | enzyme activity |  |  | reference: IC50 PIK3CG over PI3Kδ | selectivity ratio | 131
CSCC[C@@H]1NC(=O)[C@H](Cc2ccccc2)NC(=O)CNC(=O)[C@H](NC(=O)[C@@H](N)Cc2ccc(O)cc2)CSSC[C@H](C(=O)N[C@@H](Cc2c[nH]c3ccccc23)C(=O)NCc2cc(C(F)(F)F)cc(C(F)(F)F)c2)NC(=O)[C@@H]2CCCN2C1=O | Mu-type opioid receptor (Oprm1, Rattus norvegicus, UniProt P33535) | GTPγS binding, agonist, radiometric |  | cell membranes |  | Emax | 9%
NS(=O)(=O)c1ccc(NC(=O)c2ccccc2SSc2ccccc2C(=O)Nc2ccc(S(N)(=O)=O)cc2)cc1 | Gag-Pol polyprotein, integrase (gag-pol, Human immunodeficiency virus type 1 group M subtype B, UniProt P04585, C1427S) | DNA binding, fluorescence anisotropy | HIV-1 | compound:integrase ratio 3:1, with: 10 mM Mn2+, U5 DNA |  | Hill coefficient | 1.2
CC(C)C[C@@H]1NC(=O)[C@@H](NC(=O)[C@H](CC(=O)O)NC(=O)[C@H](C)N)CSSC[C@@H]2NC(=O)[C@@H]3CSSC[C@@H](C(=O)N[C@@H](CCCNC(=N)N)C(=O)O)NC(=O)[C@H](CCCNC(=N)N)NC(=O)[C@H](CCC(N)=O)NC(=O)[C@H](CCC(=O)O)NC(=O)[C@@H]4CCCN4C(=O)[C@H](CC(N)=O)NC(=O)[C@H]([C@@H](C)O)NC(=O)CNC(=O)[C@H](CCCNC(=N)N)NC(=O)[C@H](CCCNC(=N)N)NC(=O)[C@H](CO)NC(=O)[C@H](CSSC[C@H](NC(=O)[C@H](CC(C)C)NC(=O)[C@H](CCCCN)NC(=O)[C@H](CC(C)C)NC(=O)[C@H](Cc4c[nH]cn4)NC(=O)[C@H](C)NC1=O)C(=O)N[C@@H](CCCCN)C(=O)N[C@@H](CCCCN)C(=O)N[C@@H](CC(N)=O)C(=O)N[C@@H](CCCCN)C(=O)N[C@@H](CC(=O)O)C(=O)N3)NC(=O)[C@H](CCCCN)NC(=O)[C@H](CCCCN)NC(=O)[C@H](CO)NC2=O | Ryanodine receptor 1 (RYR1, Oryctolagus cuniculus, UniProt P11716) | activator |  | 100 nM, pCa 6 | reference: control at pCa 5 | specific [3H]ryanodine binding | 296 ± 14.6%
CCCCCCCCCCCCCCCC(=O)N[C@@H](CCC(=O)NCCCC[C@H](NC(=O)[C@H](CO)NC(=O)[C@@H]1CCCN1C(=O)[C@@H]1CCCN1C(=O)[C@@H]1CCCN1C(=O)[C@H](C)NC(=O)CNC(=O)[C@H](CO)NC(=O)[C@H](CO)NC(=O)[C@@H]1CCCN1C(=O)CNC(=O)CNC(=O)[C@H](C)NC(=O)[C@H](CC(C)C)NC(=O)[C@H](CC(C)C)NC(=O)[C@H](Cc1c[nH]c2ccccc12)NC(=O)[C@H](CC(N)=O)NC(=O)[C@@H](NC(=O)[C@H](Cc1ccccc1)NC(=O)[C@H](CCC(=O)O)NC(=O)C(C)(C)NC(=O)[C@H](C)NC(=O)[C@H](C)NC(=O)[C@H](CCC(N)=O)NC(=O)[C@H](CCCCN)NC(=O)[C@H](CC(=O)O)NC(=O)[C@H](CC(C)C)NC(=O)[C@H](Cc1ccc(O)cc1)NC(=O)[C@@H](NC(=O)[C@H](CO)NC(=O)[C@H](Cc1ccc(O)cc1)NC(=O)[C@H](CC(=O)O)NC(=O)[C@H](CO)NC(=O)[C@@H](NC(=O)[C@H](Cc1ccccc1)NC(=O)[C@@H](NC(=O)CNC(=O)[C@H](CCC(=O)O)NC(=O)CSCC(=O)NCCN1C(=O)CSC1=O)[C@@H](C)O)[C@@H](C)O)[C@@H](C)CC)C(C)C)C(N)=O)C(=O)O | Glucagon-like peptide 1 receptor (GLP1R, Homo sapiens, UniProt P43220) | β-arrestin recruitment, agonist |  |  |  | Emax | < 5%
CC[C@H](C)[C@H](N)C(=O)N[C@@H](CC(N)=O)C(=O)N[C@@H](CC(N)=O)C(=O)N[C@H](C(=O)N1C[C@@H](n2cc([C]34[CH]5[CH]6[CH]7[CH]3[Fe]6754389%10[CH]4[CH]3[CH]8[CH]9[CH]4%10)nn2)C[C@H]1C(=O)N[C@@H](Cc1cn(C)c2ccccc12)C(N)=O)[C@@H](C)CC (some centres unmarked) | Envelope glycoprotein gp160, gp120 (env, Human immunodeficiency virus type 1 group M subtype B, UniProt P35961, S370A) | ITC |  | concentration not given, gp120 S375A mutant |  | binding stoichiometry | 1.13
CC[C@H](C)[C@@H]1NC(=O)[C@H](Cc2ccc(O)cc2)NC(=O)[C@H](CC(C)C)NC(=O)[C@@H]2CCCN2C(=O)[C@H](CCC(=O)O)NC(=O)[C@H](CCC(N)=O)NC(=O)[C@H](CCSC)NC(=O)[C@H](Cc2ccccc2)NC(=O)[C@@H](NC(=O)[C@H](C)N)CSCC(=NOCC(=O)NC/C=C/S(C)(=O)=O)CSC[C@@H](C(=O)NCC(N)=O)NC1=O | Genome polyprotein, NIa protease (Tobacco etch virus, UniProt P04517) | covalent inhibitor |  | Genome polyprotein 50 nM |  | kinact/KI | 6500 ± 130 M⁻¹ s⁻¹
CC(C)C[C@H](NC(=O)[C@H](CCCCN)NC(=O)[C@H](Cc1c[nH]c2ccccc12)NC(=O)[C@H](CCCCN)NC(=O)[C@@H]1CSSC[C@@H]2NC(=O)[C@H](CCC(=O)O)NC(=O)[C@H](CC(N)=O)NC(=O)[C@H](CCCCN)NC(=O)CNC(=O)[C@@H]3CCCN3C(=O)[C@H]([C@@H](C)O)NC(=O)[C@@H]3CSSC[C@H](NC(=O)[C@H](C(C)C)NC(=O)[C@H](CCCNC(=N)N)NC(=O)[C@H](CC(N)=O)NC(=O)[C@@H]4CCCN4C(=O)[C@H](CSSC[C@H](NC(=O)[C@H](C)N)C(=O)N[C@@H](CCCCN)C(=O)NCC(=O)N[C@@H](C(C)C)C(=O)N[C@@H](Cc4ccccc4)C(=O)N[C@@H](CC(=O)O)C(=O)N[C@@H](C)C(=O)N3)NC2=O)C(=O)N[C@@H](CO)C(=O)N[C@@H](CC(=O)O)C(=O)N[C@@H](CCCCN)C(=O)N[C@@H](Cc2c[nH]cn2)C(=O)N[C@@H](CCCCN)C(=O)N[C@@H](Cc2c[nH]c3ccccc23)C(=O)N1)C(N)=O | Sodium channel protein type 2 subunit alpha (Scn2a, Rattus norvegicus, UniProt P04775) | ion current, inhibitor, two-electrode voltage clamp |  | 1 µM, pH 7.4, oocytes |  | inhibition | 84.4%
CC[C@H](C)[C@H](NC(=O)[C@H](C)NC(=O)[C@@H](NC(=O)[C@H](CC(=O)O)NC(=O)[C@H](CCCCN)NC(=O)[C@H](CO)NC(=O)[C@@H](NC(=O)[C@H](CC(N)=O)NC(=O)[C@H](C)NC(=O)[C@@H](NC(=O)[C@H](CCC(=O)O)NC(=O)[C@H](CCCCN)NC(=O)[C@@H](NC(=O)[C@@H](NC(=O)[C@H](Cc1c[nH]cn1)NC(=O)[C@H](CCCCN)NC(=O)[C@@H](NC(=O)[C@H](CCCCN)NC(=O)[C@H](CCCCN)NC(=O)[C@@H](NC(=O)[C@H](CC(C)C)NC(=O)[C@H](CCCCN)NC(=O)[C@H](CC(N)=O)NC(=O)[C@H](Cc1ccccc1)NC(=O)[C@H](CCCNC(=N)N)NC(=O)[C@H](CCCCN)NC(=O)[C@H](CCCNC(=N)N)NC(=O)[C@H](Cc1ccccc1)NC(=O)CN)C(C)C)C(C)C)[C@@H](C)O)[C@@H](C)CC)[C@@H](C)O)C(C)C)C(C)C)C(=O)N[C@H](C(=O)N[C@@H](C)C(=O)NCC(=O)N[C@@H](CO)C(=O)NCC(=O)N[C@H](C(=O)N[C@@H](C)C(=O)N[C@H](C(=O)NCC(=O)N[C@@H](C)C(=O)N[C@@H](C)C(=O)N[C@@H](CCSC)C(N)=O)C(C)C)C(C)C)C(C)C | Muscarinic acetylcholine receptor M1 (CHRM1, Homo sapiens, UniProt P11229) | antagonist, CEREP off-target panel |  | 10 µM |  | inhibition | 49%
CC(C)C[C@@H]1NC(=O)[C@@H]2CCCN2C(=O)[C@H](CC(=O)O)NC(=O)CNC(=O)[C@H](CC(N)=O)NC(=O)[C@H](CCCCN)NC(=O)[C@H]([C@@H](C)O)NC(=O)[C@@H](N)CSCc2cc3cc(c2)CSC[C@H](NC(=O)[C@@H]2CCCN2C1=O)C(=O)NCC(=O)N[C@@H](CCC(=O)O)C(=O)N[C@@H]([C@@H](C)O)C(=O)N[C@H](C(N)=O)CSC3 | Cannabinoid receptor 2 (CNR2, Homo sapiens, UniProt P34972) | β-arrestin-2 recruitment | HEK293 | concentration not given, with: 2-AG 1 µM |  | decrease in efficacy | ~30%
